Measured values pooled from the literature.
Each numbered part is a random draw from the data of one study; scales do not carry over between parts.
Sequence of UniProt P51451 (whole entry, looked up): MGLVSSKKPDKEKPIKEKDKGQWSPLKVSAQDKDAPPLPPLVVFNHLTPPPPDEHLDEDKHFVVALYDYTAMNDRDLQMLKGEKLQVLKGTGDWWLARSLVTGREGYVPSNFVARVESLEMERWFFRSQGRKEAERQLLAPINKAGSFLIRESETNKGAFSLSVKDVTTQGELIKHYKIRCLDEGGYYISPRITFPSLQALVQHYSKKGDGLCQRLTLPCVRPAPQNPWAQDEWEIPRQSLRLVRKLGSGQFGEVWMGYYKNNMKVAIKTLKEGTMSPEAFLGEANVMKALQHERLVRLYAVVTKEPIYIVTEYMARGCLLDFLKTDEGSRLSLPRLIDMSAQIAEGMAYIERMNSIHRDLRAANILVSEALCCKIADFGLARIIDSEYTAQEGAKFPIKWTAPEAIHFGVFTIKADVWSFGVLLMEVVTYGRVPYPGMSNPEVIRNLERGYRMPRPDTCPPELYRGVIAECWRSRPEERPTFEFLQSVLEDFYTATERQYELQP
Sequence of UniProt P11802 (whole entry, looked up): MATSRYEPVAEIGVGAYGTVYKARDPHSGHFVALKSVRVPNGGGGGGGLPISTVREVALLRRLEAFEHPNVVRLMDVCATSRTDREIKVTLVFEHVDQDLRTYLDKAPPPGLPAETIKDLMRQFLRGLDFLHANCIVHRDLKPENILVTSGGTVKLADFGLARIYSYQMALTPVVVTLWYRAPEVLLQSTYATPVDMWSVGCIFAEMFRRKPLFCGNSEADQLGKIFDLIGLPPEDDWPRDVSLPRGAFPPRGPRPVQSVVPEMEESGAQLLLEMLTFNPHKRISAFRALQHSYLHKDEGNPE
Sequence of UniProt P30530 (whole entry, looked up): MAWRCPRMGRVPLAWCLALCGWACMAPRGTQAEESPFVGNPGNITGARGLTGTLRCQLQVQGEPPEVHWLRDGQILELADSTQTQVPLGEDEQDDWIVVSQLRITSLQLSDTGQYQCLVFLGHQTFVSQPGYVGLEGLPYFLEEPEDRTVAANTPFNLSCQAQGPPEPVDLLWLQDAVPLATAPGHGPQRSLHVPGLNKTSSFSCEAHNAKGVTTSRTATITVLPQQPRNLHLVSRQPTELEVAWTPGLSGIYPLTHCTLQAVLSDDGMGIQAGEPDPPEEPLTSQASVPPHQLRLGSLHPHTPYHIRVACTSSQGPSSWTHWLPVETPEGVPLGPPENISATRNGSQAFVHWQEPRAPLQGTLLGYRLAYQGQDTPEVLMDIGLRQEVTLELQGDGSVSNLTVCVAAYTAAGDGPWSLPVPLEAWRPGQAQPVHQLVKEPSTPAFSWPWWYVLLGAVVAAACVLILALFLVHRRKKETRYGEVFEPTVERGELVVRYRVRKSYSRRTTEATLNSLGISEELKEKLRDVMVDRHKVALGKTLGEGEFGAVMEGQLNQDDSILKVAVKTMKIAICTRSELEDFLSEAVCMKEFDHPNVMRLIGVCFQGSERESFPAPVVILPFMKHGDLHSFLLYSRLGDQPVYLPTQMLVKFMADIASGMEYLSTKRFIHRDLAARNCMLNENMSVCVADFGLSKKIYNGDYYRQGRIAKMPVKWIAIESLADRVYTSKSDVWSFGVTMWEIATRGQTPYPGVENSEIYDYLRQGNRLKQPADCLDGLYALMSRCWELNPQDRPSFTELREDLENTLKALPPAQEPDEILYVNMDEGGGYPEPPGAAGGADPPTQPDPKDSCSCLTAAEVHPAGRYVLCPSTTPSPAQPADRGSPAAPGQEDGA
Sequence of UniProt O15530 (whole entry, looked up): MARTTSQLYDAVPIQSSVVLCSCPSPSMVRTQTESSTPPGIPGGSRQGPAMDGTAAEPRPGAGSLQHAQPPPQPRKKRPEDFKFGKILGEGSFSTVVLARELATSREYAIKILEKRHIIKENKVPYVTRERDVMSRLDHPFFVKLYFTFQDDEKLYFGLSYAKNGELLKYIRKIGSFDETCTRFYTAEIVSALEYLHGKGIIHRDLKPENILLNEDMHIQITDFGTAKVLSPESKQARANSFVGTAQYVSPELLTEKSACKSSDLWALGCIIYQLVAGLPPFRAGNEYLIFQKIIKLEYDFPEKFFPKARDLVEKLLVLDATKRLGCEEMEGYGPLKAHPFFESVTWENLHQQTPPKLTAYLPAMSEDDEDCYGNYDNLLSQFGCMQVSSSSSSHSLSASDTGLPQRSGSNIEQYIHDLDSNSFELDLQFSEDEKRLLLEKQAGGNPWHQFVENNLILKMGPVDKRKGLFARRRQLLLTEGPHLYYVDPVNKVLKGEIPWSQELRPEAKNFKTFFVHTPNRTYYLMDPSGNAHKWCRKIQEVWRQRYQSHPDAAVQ

Block 1 — SMILES: COc1cccc(-c2cc(=O)c3ccccc3o2)c1N; observed: enzyme activity; mode: inhibitor; concentration: 0.5 µM; baseline: control; measurement: remaining activity
target = CAMK2B (Homo sapiens, UniProt Q13554); result = 103%
target = SRMS (Homo sapiens, UniProt Q9H3Y6); result = 104%
target = Cyclin-dependent kinase 6, with cyclin D3 (CDK6, Homo sapiens, UniProt Q00534); result = 99.3%
target = ABL1 (Homo sapiens, UniProt P00519); result = 93.9%
target = Cyclin-dependent kinase 1, with cyclin B (CDK1, Homo sapiens, UniProt P06493); result = 99.8%
target = EPHB4 (Homo sapiens, UniProt P54760); result = 101%
target = EPHB1 (Homo sapiens, UniProt P54762); result = 88%
target = TSSK2 (Homo sapiens, UniProt Q96PF2); result = 79.7%
target = WNK3 (Homo sapiens, UniProt Q9BYP7); result = 96.3%
target = PHKG1 (Homo sapiens, UniProt Q16816); result = 92.9%
target = STK17A (Homo sapiens, UniProt Q9UEE5); result = 96.9%
target = STK16 (Homo sapiens, UniProt O75716); result = 95.4%
target = DYRK3 (Homo sapiens, UniProt O43781); result = 90.3%
target = MAP4K4 (Homo sapiens, UniProt O95819); result = 97.2%
target = HIPK4 (Homo sapiens, UniProt Q8NE63); result = 98.6%
target = RPS6KA6 (Homo sapiens, UniProt Q9UK32); result = 95.2%
target = Cyclin-dependent kinase 4, with cyclin D3 (CDK4, Homo sapiens, UniProt P11802); result = 101%
target = HIPK2 (Homo sapiens, UniProt Q9H2X6); result = 116%
target = PRKACG (Homo sapiens, UniProt P22612); result = 96%
target = RPS6KA5 (Homo sapiens, UniProt O75582); result = 96.4%
target = PDPK1 (Homo sapiens, UniProt O15530); result = 98.3%
target = EPHA4 (Homo sapiens, UniProt P54764); result = 98%
target = BLK (Homo sapiens, UniProt P51451); result = 107%
target = MAPKAPK3 (Homo sapiens, UniProt Q16644); result = 88.1%
target = AXL (Homo sapiens, UniProt P30530); result = 127%

Block 2 — observed: enzyme activity; mode: inhibitor; concentration: 77 µM; baseline: untreated; measurement: remaining activity
Target: DNA polymerase theta, ATPase domain (POLQ, Homo sapiens, UniProt O75417)
Sequence of UniProt O75417 (whole entry, unmodified, looked up): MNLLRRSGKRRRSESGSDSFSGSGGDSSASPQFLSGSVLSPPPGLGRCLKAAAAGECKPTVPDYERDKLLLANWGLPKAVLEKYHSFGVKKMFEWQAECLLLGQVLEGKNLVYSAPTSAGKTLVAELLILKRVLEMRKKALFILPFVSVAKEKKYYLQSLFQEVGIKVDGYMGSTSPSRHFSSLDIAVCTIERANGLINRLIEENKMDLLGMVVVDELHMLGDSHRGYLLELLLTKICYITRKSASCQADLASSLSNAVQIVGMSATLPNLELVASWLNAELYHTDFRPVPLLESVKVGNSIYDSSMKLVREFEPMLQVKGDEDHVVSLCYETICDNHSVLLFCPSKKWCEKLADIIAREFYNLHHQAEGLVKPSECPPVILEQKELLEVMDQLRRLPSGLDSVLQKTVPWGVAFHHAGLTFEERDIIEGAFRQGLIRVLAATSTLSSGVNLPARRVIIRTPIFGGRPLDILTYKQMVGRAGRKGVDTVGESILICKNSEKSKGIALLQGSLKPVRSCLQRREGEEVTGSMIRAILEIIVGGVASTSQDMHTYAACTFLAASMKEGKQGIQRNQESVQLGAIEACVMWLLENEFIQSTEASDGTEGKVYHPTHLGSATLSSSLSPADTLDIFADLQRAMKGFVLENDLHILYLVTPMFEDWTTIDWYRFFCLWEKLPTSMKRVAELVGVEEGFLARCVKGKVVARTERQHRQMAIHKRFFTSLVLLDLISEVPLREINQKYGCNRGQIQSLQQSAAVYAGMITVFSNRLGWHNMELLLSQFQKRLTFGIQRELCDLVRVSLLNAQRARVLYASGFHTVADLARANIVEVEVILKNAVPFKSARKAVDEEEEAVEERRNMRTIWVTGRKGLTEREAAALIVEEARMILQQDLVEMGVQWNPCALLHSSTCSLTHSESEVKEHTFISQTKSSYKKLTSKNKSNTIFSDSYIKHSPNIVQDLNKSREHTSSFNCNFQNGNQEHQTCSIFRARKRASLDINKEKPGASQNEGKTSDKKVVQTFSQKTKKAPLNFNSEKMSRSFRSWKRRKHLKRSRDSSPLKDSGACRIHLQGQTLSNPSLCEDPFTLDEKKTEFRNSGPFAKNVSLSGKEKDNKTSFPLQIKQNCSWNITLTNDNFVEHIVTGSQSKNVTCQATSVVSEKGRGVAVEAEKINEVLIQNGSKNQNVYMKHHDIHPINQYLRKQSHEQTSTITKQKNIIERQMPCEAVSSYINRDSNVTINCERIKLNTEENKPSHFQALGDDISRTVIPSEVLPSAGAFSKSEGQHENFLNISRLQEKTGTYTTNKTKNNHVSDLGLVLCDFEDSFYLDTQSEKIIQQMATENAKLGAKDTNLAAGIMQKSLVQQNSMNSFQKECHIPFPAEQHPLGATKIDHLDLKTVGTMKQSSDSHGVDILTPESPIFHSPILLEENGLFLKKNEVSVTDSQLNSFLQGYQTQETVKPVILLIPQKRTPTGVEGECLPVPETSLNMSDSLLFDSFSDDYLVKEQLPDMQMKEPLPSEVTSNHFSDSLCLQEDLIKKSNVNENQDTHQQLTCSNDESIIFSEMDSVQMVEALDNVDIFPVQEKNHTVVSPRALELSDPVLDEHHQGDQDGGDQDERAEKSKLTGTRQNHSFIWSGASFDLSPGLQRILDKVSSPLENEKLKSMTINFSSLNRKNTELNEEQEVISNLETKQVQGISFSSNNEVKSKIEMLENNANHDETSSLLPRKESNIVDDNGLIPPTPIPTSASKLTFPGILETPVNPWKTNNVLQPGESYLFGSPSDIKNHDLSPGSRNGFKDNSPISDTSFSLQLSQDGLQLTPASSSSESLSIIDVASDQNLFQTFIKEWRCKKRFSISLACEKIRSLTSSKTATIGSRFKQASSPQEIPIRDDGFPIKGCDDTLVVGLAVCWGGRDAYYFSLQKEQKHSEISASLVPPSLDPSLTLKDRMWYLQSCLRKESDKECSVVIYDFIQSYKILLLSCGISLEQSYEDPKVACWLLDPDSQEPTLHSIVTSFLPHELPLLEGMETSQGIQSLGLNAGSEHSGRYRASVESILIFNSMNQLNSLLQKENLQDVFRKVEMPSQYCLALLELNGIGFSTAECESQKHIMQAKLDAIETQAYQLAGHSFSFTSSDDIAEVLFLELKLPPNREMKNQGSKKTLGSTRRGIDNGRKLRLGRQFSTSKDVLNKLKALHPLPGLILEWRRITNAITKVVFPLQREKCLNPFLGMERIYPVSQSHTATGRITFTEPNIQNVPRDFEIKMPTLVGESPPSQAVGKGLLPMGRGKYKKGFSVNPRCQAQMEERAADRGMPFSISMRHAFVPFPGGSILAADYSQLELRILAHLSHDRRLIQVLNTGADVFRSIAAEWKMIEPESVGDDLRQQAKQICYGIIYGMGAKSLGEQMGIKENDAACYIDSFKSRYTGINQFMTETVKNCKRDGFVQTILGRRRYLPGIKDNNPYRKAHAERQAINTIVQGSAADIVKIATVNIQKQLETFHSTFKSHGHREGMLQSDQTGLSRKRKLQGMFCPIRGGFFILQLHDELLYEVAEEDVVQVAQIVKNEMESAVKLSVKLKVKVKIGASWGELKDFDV
Structure (SMILES) = COc1ccc(NS(=O)(=O)c2sc3ccc(Cl)cc3c2C)cc1N1CCNCC1; result = 102%
Structure (SMILES) = O[C@@H]1CO[C@H]2[C@@H]1OC[C@@H]2O; result = 99.5%
Structure (SMILES) = Nc1nc(Nc2ccc(S(N)(=O)=O)cc2)nn1C(=S)Nc1c(F)cccc1F; result = 108%
Structure (SMILES) = CC[N+](C)(CC)CCOC(=O)C1c2ccccc2Oc2ccccc21; result = 105%
Structure (SMILES) = Nc1nc(=S)c2ncn([C@@H]3O[C@H](CO)[C@@H](O)[C@H]3O)c2[nH]1; result = 101%
Structure (SMILES) = N[C@H](CO)C(=O)O; result = 102%
Structure (SMILES) = CCS(=O)(=O)Nc1ccc2c(c1)/C(=C(/Nc1ccc(CN3CCCCC3)cc1)c1ccccc1)C(=O)N2; result = 100%
Structure (SMILES) = S=C(S)O[C@@H]1C[C@@H]2C[C@@H]1[C@H]1CCC[C@@H]21; result = 96.2%
Structure (SMILES) = C[N+](C)(C)CC(=O)O; result = 109%
Structure (SMILES) = CCCn1c(=O)c2[nH]c(C3CCCC3)nc2n(CCC)c1=O; result = 95.9%
Structure (SMILES) = CO[C@H]1C(=O)[C@]2(C)[C@@H](OC)C[C@H]3OC[C@@]3(OC(C)=O)[C@H]2[C@H](OC(=O)c2ccccc2)[C@]2(O)C[C@H](OC(=O)[C@H](O)[C@@H](NC(=O)OC(C)(C)C)c3ccccc3)C(C)=C1C2(C)C; result = 107%
Structure (SMILES) = CC(S)C(=O)NCC(=O)O (stereo not shown); result = 98.1%

Block 3 — observed: cell-free assay; method: competition with immobilised ligand; concentration: 1 µM; measurement: remaining binding
SMILES: CC1=C(C#N)C(c2ccc3c(c2)c(NC(=O)c2ccccc2C)nn3C)C(C#N)=C(C)N1
target = STK39 (Homo sapiens, UniProt Q9UEW8); result = 92%
target = Aurora kinase B (AURKB, Homo sapiens, UniProt Q96GD4); result = 66%
target = FLT1 (Homo sapiens, UniProt P17948); result = 100%
target = PKN2 (Homo sapiens, UniProt Q16513); result = 100%
target = LTK (Homo sapiens, UniProt P29376); result = 70%
target = WNK4 (Homo sapiens, UniProt Q96J92); result = 95%
target = PAK1 (Homo sapiens, UniProt Q13153); result = 100%
target = RET (Homo sapiens, UniProt P07949, M918T); result = 100%
target = TNNI3K (Homo sapiens, UniProt Q59H18); result = 96%
target = KIT (Homo sapiens, UniProt P10721, D816H); result = 64%
target = NEK7 (Homo sapiens, UniProt Q8TDX7); result = 96%
target = DCLK2 (Homo sapiens, UniProt Q8N568); result = 100%
target = BLK (Homo sapiens, UniProt P51451); result = 82%
target = Tyrosine-protein kinase ABL1, phosphorylated (ABL1, Homo sapiens, UniProt P00519, Y253F); result = 82%
target = KDR (Homo sapiens, UniProt P35968); result = 80%
target = IRAK3 (Homo sapiens, UniProt Q9Y616); result = 79%
target = EGFR (Homo sapiens, UniProt P00533, L858R/T790M); result = 93%
target = Tyrosine-protein kinase ABL1, phosphorylated (ABL1, Homo sapiens, UniProt P00519); result = 66%
target = EPHB2 (Homo sapiens, UniProt P29323); result = 86%
target = CDK2 (Homo sapiens, UniProt P24941); result = 86%

Other studies, line by line
SMILES = CC(C)n1cnc(-c2ccc(F)cc2)c1-c1ncc(C(=O)Nc2ccc(N3CCN(C)CC3)cc2)[nH]1; test system = human, idiopathic pulmonary fibrosis; setting = 30 mg once daily, trial, treatment-emergent; measurement = grade 5 ECG high voltage; result = 0%

Some of these lines once more (block 1):
target = Cyclin-dependent kinase 6, with cyclin D3 (CDK6, Homo sapiens, UniProt Q00534); result = 99.3%
target = ABL1 (Homo sapiens, UniProt P00519); result = 93.9%
target = Cyclin-dependent kinase 1, with cyclin B (CDK1, Homo sapiens, UniProt P06493); result = 99.8%
target = EPHB4 (Homo sapiens, UniProt P54760); result = 101%
